Measurements collected from several papers.
Protocols differ between the studies behind these lines. Values joined by “and” are separate records of one study, mostly repeats; a detail may differ. ± gives the spread as reported.

CCC[C@H](N)C(=O)O gave a thermal shift of 6.87 °C (SAR11_1346; differential scanning fluorimetry; Candidatus Pelagibacter sp.; in-house screen).
Oc1ccccc1-c1n[nH]cc1-c1ccnc2ccccc12 — result for “log2 fold change”: 0.11 (MCK1 (Candida albicans); kinase binding, MIB/MS competition; Candida albicans lysate; 1 µM; baseline: DMSO).
Under “cells with nuclear reporter”, CC(Nc1nc(N2CCCC2)nc2ccccc12)c1ccccc1 (stereo not shown) is recorded as 92.5% (importin α/β1; cMyc nuclear import, high content imaging; HeLa Kyoto reporter; 15.8 µM, 2 h).
The ΔTm of C[n+]1cccc2cc(C=NNC(=O)c3ccc4ccc5ccc(C(=O)NN=Cc6ccc7c(ccc[n+]7C)c6)nc5c4n3)ccc21.[I-].[I-] is reported as 0.3 ± 0.1 °C (hp2 hairpin duplex DNA; FRET melting; 1 µM, together with: ds26 10 µM).
CCc1oc2c([C@H](CO)N(CC)CC)cccc2c1C: activity “no effect” (cannabinoid receptors, human; agonist, NanoBiT G-protein dissociation; concentration not given).
O=C(Nc1cc(OCCN2CCCC2)c2ccccc2n1)c1cc(OCCN2CCCC2)cc(C(=O)Nc2cc(OCCN3CCCC3)c3ccccc3n2)n1 has a ΔTm of 24.5 ± 0.7 K (c-kit1 G-quadruplex DNA; FRET melting; 1 µM, pH 7.4, together with: 60 mM potassium).
With CC[C@H](C)[C@H](N)C(=O)O the thermal shift was 4.88 °C and 4.71 °C (SAR11_1346; differential scanning fluorimetry; Candidatus Pelagibacter sp.; in-house screen).
COc1cccc(CNC(=O)C#Cc2cn(Cc3ccc(C(=O)O)cc3)c(=O)[nH]c2=O)c1: “remaining MMP-12 activity” 106 ± 29% (MMP-12; inhibitor, colorimetric; 20 µM).
Cc1ncsc1-c1ccc(CNC(=O)[C@@H]2C[C@@H](O)CN2C(=O)[C@@H](NC(=O)C2(C#N)CC2)C(C)(C)C)cc1 gave a macrophage density of 12.8 cells/mm² (F4/80+ macrophages; immunostaining; Mus musculus, meningeal perivascular region; concentration not given).
The relative interaction of CCCCCCCC(=O)OCC(COC(=O)CCCCCCC)OC(=O)CCCCCCC is reported as 62.3% (human FXRα-RXRα; protein-protein interaction, antagonist, mammalian two-hybrid; COS-7 cells; concentration not given, PGC1α co-transfected, together with: GW4064; baseline: GW4064 alone).
NCCOc1cc(C(=O)Nc2cc(OCCN)c3ccccc3n2)nc(C(=O)Nc2cc(OCCN)c3ccccc3n2)c1 gave a ΔTm of 35 ± 0.7 K (c-kit1 G-quadruplex DNA; FRET melting; 1 µM, pH 7.4, together with: 60 mM potassium).
The IC50 of Cc1c(N(C)C)ccc2cc(C(=O)NS(=O)(=O)c3ccccc3-c3ccccc3)oc12 is reported as greater than 20000 nM (human estrogen receptor alpha; reporter gene; MCF7-MVLN).
N[C@@H]1c2ccccc2OC12CCN(c1cnc3c(N4CCCc5ncccc54)n[nH]c3n1)CC2 gave a pERK inhibition of roughly 50% (ERK, human; patients with advanced solid tumours, monocytes, GM-CSF stimulated, blood; 20 mg, cycle 1 day 15, together with: GM-CSF; baseline: baseline (cycle 1 day 1)).
The thermal shift of CCC(N)C(=O)O (racemic) is reported as 5.66 °C (SAR11_1346; differential scanning fluorimetry; Candidatus Pelagibacter sp.; in-house screen).
O=C(NN=Cc1ccc(C[n+]2ccccc2)cc1)c1ccc2ccc3ccc(C(=O)NN=Cc4ccc(C[n+]5ccccc5)cc4)nc3c2n1.[Br-].[Br-] gave a ΔTm of 1.1 ± 0.2 °C (hp2 hairpin duplex DNA; FRET melting; 1 µM).
The ΔTm of COc1cc(C(=O)Nc2cc(OC)c3ccccc3n2)nc(C(=O)Nc2cc(OC)c3ccccc3n2)c1 is reported as 1.2 ± 0.6 K (c-kit1 G-quadruplex DNA; FRET melting; 1 µM, pH 7.4, together with: 60 mM potassium).
With N[C@@H](Cc1c[nH]c2ccccc12)C(=O)O the thermal shift was 2.33 °C (SAR11_1346; differential scanning fluorimetry; Candidatus Pelagibacter sp.; in-house screen).
CN(C)CCCOc1cc(NC(=O)c2cccc(C(=O)Nc3cc(OCCCN(C)C)c4ccccc4n3)n2)nc2ccccc12 has a ΔTm of 26.8 ± 0.5 K (c-kit1 G-quadruplex DNA; FRET melting; 1 µM, pH 7.4, together with: 60 mM potassium).
CCOc1ccc(N(C)S(=O)(=O)c2cc(Cl)sc2C(=O)Nc2cc(Cl)cc(C(=O)O)c2)cc1OC — result for activity: “inactive” (nuclear hormone receptor panel; CRT; concentration not given).
CC[C@@]1(O)C(=O)OCc2c1cc1n(c2=O)Cc2cc3ccccc3nc2-1 gave a ΔTm of 0.3 ± 0.1 °C (MYC G-quadruplex DNA; FRET melting; 2.0 µM, pH 7.0, together with: K+ 10 mM).
COc1cc(C(=O)Nc2cc(OCCN3CCCC3)c3ccccc3n2)nc(C(=O)Nc2cc(OCCN3CCCC3)c3ccccc3n2)c1 gave a ΔTm of 17.7 ± 0.7 K (c-kit1 G-quadruplex DNA; FRET melting; 1 µM, pH 7.4, together with: 60 mM potassium).
CCOc1ccc(C(C)(CC(=O)O)C(=O)O)cc1 (stereo not shown): inhibition “inhibited” (rat AA3; 20 µM).
CC(C)c1noc2ncc(C(=O)c3ccccc3O)cc12 gave an inhibition of 3.02% (rat Kv2.1; ion current, whole-cell patch-clamp; 10 µM).
With CC[C@@H]1[C@H](F)C(=O)N[C@@H]1COc1nccc2cc(C(N)=O)c(OC)cc12 the IC50 was 150 nM (CK1 delta and CK1 epsilon; ATP-site binding, ActivX kinase profiling; THP-1 cell lysate; Lys2 probe peptide).
With COc1cc2c3c(n(CCCN4CCC[C@H]4C(N)=O)c(=O)c2cc1OC)-c1nc2c(cc1C3=O)OCO2 the ΔTm was 17.1 ± 1.6 °C (MYC G-quadruplex DNA; FRET melting; 2.0 µM, pH 7.0, together with: K+ 10 mM).
CO[C@@H](C(=O)N1Cc2n[nH]c(NC(=O)c3ccc(N4CCN(C)CC4)cc3)c2C1)c1ccccc1 — result for “dose decreasing phospho-histone H3”: no less than 500 mg/m2 (histone H3 (human); Western blot and IHC; patients with advanced solid tumours, skin biopsy; 24 h; baseline: baseline).
With CCCCC1=NC2(CCCC2)C(=O)N1Cc1ccc(-c2ccccc2S(=O)(=O)Nc2noc(C)c2C)c(COCC)c1 the Jmax was 5.56 pmol/min/pmol (P-gp; substrate, SIVA model; Caco-2).
c1coc(-c2n[nH]cc2-c2ccnc3ccccc23)c1: “log2 fold change” -0.14 (CKA1 (Candida albicans); kinase binding, MIB/MS competition; Candida albicans lysate; 10 µM; baseline: DMSO).
CC(=O)N[C@H](C(=O)N1C[C@H](O)C[C@H]1C(=O)NCc1ccc(-c2scnc2C)cc1)C(C)(C)SCCCCCCNC(=O)C[C@@H]1N=C(c2ccc(Cl)cc2)c2c(sc(C)c2C)-n2c(C)nnc21 — result for “relative protein abundance”: 1.01 (DNA-PKcs (human); TMT proteomics; HeLa; 1 µM, 24 h; baseline: DMSO).
NCCCOc1cc(NC(=O)c2cc(OCc3c[nH]nn3)cc(C(=O)Nc3cc(OCCCN)c4ccccc4n3)n2)nc2ccccc12 has a ΔTm of 9.8 ± 0.5 K (c-kit1 G-quadruplex DNA; FRET melting; 1 µM, pH 7.4, together with: 60 mM potassium).
COc1cc2c3c(n(CCCN4CCCC4)c(=O)c2cc1OC)-c1nc2c(cc1C3=O)OCO2 gave a ΔTm of 24.2 ± 1.6 °C (MYC G-quadruplex DNA; FRET melting; 2.0 µM, pH 7.0, together with: K+ 10 mM).
C#Cc1cc(-c2cc(Nc3nc(N[C@@H](C)c4ccc(F)cn4)ncc3Cl)n[nH]2)ccc1C=O gave an inhibition of 81.3% and 81.8% (FYN isoform b (human); kinase activity; 200 nM).
With C#CCOc1cc(C(=O)Nc2cc(OCCCN)c3ccccc3n2)nc(C(=O)Nc2cc(OCCCN)c3ccccc3n2)c1 the ΔTm was 16.5 ± 1 K (c-kit1 G-quadruplex DNA; FRET melting; 1 µM, pH 7.4, together with: 60 mM potassium).
With COc1cc2c3c(n(CCCN4CCOCC4)c(=O)c2cc1OC)-c1nc2c(cc1C3=O)OCO2 the ΔTm was 17.2 ± 1.4 °C (MYC G-quadruplex DNA; FRET melting; 2.0 µM, pH 7.0, together with: K+ 10 mM).
CCCC(CCC)c1nc2c(Nc3ccc(C#CCCCCCCCCN)cc3)nc3ccccc3c2[nH]1: affinity “inactive” (benzodiazepine site; PDSP screening).
With CCCCCCCC(=O)OC[C@H](COP(=O)(O)O[C@@H]1[C@H](O)[C@H](O)[C@@H](OP(=O)(O)O)[C@H](OP(=O)(O)O)[C@H]1O)OC(=O)CCCCCCC the cooperativity factor was 6.64 (Kv7.2/Kv7.3(EEE) mutant channel; activator; model 5, efficacy fixed to wild type).
For N[C@@H](Cc1ccccc1)C(=O)O, the thermal shift was 2.01 °C (SAR11_1346; differential scanning fluorimetry; Candidatus Pelagibacter sp.; in-house screen).
CCNCCCn1c2c(c3cc(OC)c(OC)cc3c1=O)C(=O)c1cc3c(nc1-2)OCO3 has a ΔTm of 31.6 ± 0.8 °C (MYC G-quadruplex DNA; FRET melting; 2.0 µM, pH 7.0, together with: K+ 10 mM).
CC(C)[C@H](N)C(=O)O gave a thermal shift of 4.73 °C and 4.93 °C (SAR11_1346; differential scanning fluorimetry; Candidatus Pelagibacter sp.; in-house screen).
With CN(C)CCCOc1cc(NC(=O)c2cc(Cl)cc(C(=O)Nc3cc(OCCCN(C)C)c4ccccc4n3)n2)nc2ccccc12 the ΔTm was 31.6 ± 0.5 K (c-kit1 G-quadruplex DNA; FRET melting; 1 µM, pH 7.4, together with: 60 mM potassium).

A few entries again:
CCC[C@H](N)C(=O)O gave a thermal shift of 6.87 °C (SAR11_1346; differential scanning fluorimetry; Candidatus Pelagibacter sp.; in-house screen).
Oc1ccccc1-c1n[nH]cc1-c1ccnc2ccccc12 — result for “log2 fold change”: 0.11 (MCK1 (Candida albicans); kinase binding, MIB/MS competition; Candida albicans lysate; 1 µM; baseline: DMSO).
Under “cells with nuclear reporter”, CC(Nc1nc(N2CCCC2)nc2ccccc12)c1ccccc1 (stereo not shown) is recorded as 92.5% (importin α/β1; cMyc nuclear import, high content imaging; HeLa Kyoto reporter; 15.8 µM, 2 h).
